Measurements from different studies.
Protocols differ between the studies behind these lines. Several values in a cell are separate wells, animals, samples, runs or records.
Target: Macrophage-stimulating protein receptor (MST1R, Homo sapiens, UniProt Q04912)

CCn1cc(C(=O)O)c(=O)c2c(N)c(F)c(NC3CCCCC3)cc21  inhibition (kinase activity; 0.1 µM, together with: ATP at Km): -10.2%
COc1c(OCCCN2CCOCC2)ccc2c1N=C(NC(=O)c1cnc(N)nc1)N1CCN=C21  remaining activity (kinase activity, inhibitor; 1 µM; baseline: untreated control): 122%
CNC(=O)C[C@H](Cc1ccc(C#N)cc1)NC(=O)c1cc(-c2ccc(CN[C@H](C)c3ccc(C)cc3)o2)ccc1Cl  activity vs control (enzyme activity, inhibitor; 1 µM): 104%
COCC12C(=O)NC3C4(C(OC)CC1O)C1CC5(O)C(OC)C(O)C(OC(C)=O)(C1C5OC(=O)c1ccccc1)C3(O)C(OC)C24 (centres unmarked)  remaining activity (kinase activity, inhibitor, ProQinase kinase profiling; 25 µM; baseline: control): 80% and 98%
O=C(Cc1ccc(OCc2ccccc2)cc1)NC1(C(=O)O)CCN(C(=O)c2ccc(-c3cccc(Cl)c3)cc2)CC1  activity vs control (enzyme activity, inhibitor; 10 µM): 100%
C=CC(=O)N1Cc2nc(-c3cc(-c4cc(Cl)cnc4Cl)c(F)cc3F)n(-c3ccncn3)c2C1  inhibition (cell-free assay; 1 µM): 5.8%
Cc1cnc2nc1Nc1cccc(c1)COC/C=C/COCc1cc(ccc1OCCN1CCOCC1)N2  remaining binding (binding; 0.1 µM): 94%
CNC1C[S+]2CC[S+]3CC[S+](C1)[Ru-4]321([N]=C=S)[n]2c3ccc(OC)cc3c3c4c(c5cc(F)c[n+]1c5c32)C(=O)NC4=O (centres unmarked)  remaining binding (KinomeScan; 0.1 µM; baseline: untreated): 96%
COc1ccc(NC(=O)Nc2ccc3c(c2)C(=O)N(C(C)CO)CC(C)C(CN(C)Cc2ccc4c(c2)OCO4)O3)cc1 (centres unmarked)  remaining activity (kinase activity, KinaseProfiler; 0.03 µM, species human; baseline: control): 94%
Cc1cccc(O[C@H]2CCC[C@@H](C(C)CNCc3ccncc3)C2)c1 (relative stereo)  inhibition (cell-free assay; 1 µM): 9%
C=CC(=O)Nc1cccc(-c2cnc3[nH]cc(C(=O)NC(C)(C)C)c3n2)c1  inhibition (enzyme activity, inhibitor; 0.1 µM): 19%
NC(=O)C[C@H]1CCc2sc3ncnc(O[C@H]4CC[C@H](N5CCOCC5)CC4)c3c21  inhibition (enzyme activity, inhibitor; 10 µM): 3%
C=CC(=O)N1CCCC(n2c(=O)c3ncccc3n(Cc3ccc(Oc4ccccc4)cc3)c2=O)C1 (centres unmarked)  remaining binding (cell-free assay, competition with immobilised ligand; 1 µM): 87%
COc1cc(Nc2nccc(-c3cnn4nc(OC)ccc34)n2)cc(C(F)(F)F)c1  remaining binding (binding, competition with immobilised ligand; 1 µM): 100%

A few entries again:
CNC(=O)C[C@H](Cc1ccc(C#N)cc1)NC(=O)c1cc(-c2ccc(CN[C@H](C)c3ccc(C)cc3)o2)ccc1Cl  activity vs control (enzyme activity, inhibitor; 1 µM): 104%
